Results gathered from unrelated publications.
Several values in a cell are separate wells, animals, samples, runs or records. ± marks the error that the study gave.
Sequence of UniProt Q9NX63 (whole entry, looked up): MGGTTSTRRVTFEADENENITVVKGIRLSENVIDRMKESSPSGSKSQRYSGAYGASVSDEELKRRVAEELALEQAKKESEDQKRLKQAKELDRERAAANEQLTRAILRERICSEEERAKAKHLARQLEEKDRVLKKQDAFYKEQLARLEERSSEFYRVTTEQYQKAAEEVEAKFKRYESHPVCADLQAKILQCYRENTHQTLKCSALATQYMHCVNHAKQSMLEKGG

Structure (SMILES)	tested on	test	test system	setting	how to read	measurement	result
C[C@@H](O)[C@@H](CO)NC(=O)[C@@H](CCCNC(=N)N)NC(=O)[C@@H]1CCCN1C(=O)[C@@H]1CSSC[C@H](NC(=O)[C@H](Cc2ccccc2)NC(=O)CN2CCN(CC(=O)O)CCN(CC(=O)O)CCN(CC(=O)O)CC2)C(=O)N[C@@H](Cc2ccc(O)cc2)C(=O)N[C@@H](Cc2ccccc2)C(=O)N[C@@H](CCC(N)=O)C(=O)N[C@@H](CC(N)=O)C(=O)N1 [gallium-68 labelled]	–	–	healthy Wistar rat, kidneys	intravenous, 8 MBq, 120 min, individual animals	–	tissue uptake	1.73 %ID/g
CC[C@H](C)[C@H](NC(=O)[C@H](Cc1ccccc1)NC(=O)[C@H](CCC(=O)O)NC(=O)[C@H](CCCNC(=N)N)NC(=O)[C@H](C)NC(=O)[C@H](C)NC(=O)[C@H](CCC(N)=O)NC(=O)[C@H](CCC(=O)O)NC(=O)[C@H](CCC(=O)O)NC(=O)[C@H](CC(C)C)NC(=O)[C@H](Cc1ccc(O)cc1)NC(=O)[C@H](CO)NC(=O)[C@H](CO)NC(=O)[C@@H](NC(=O)[C@H](CC(=O)O)NC(=O)[C@H](CO)NC(=O)[C@@H](NC(=O)[C@H](Cc1ccccc1)NC(=O)[C@@H](NC(=O)CNC(=O)[C@H](CCC(=O)O)NC(=O)[C@H](C)NC(=O)CCc1cnc[nH]1)[C@@H](C)O)[C@@H](C)O)C(C)C)C(=O)N[C@@H](C)C(=O)N[C@@H](Cc1c[nH]c2ccccc12)C(=O)N[C@@H](CC(C)C)C(=O)N[C@H](C(=O)N[C@@H](CCCNC(=N)N)C(=O)NCC(=O)N[C@@H](CCCNC(=N)N)C(=O)N[C@@H](CCCCNC(=O)COCCOCCNC(=O)COCCOCCNC(=O)CC[C@H](NC(=O)CCCCCCCCCCCCCCCCC(=O)O)C(=O)O)C(=O)NCC(=O)NCC(=O)N[C@@H](CO)C(=O)N[C@@H](CCCCNC(=O)[C@H](CCCCNC(=O)[C@H](CCCCNc1c(NCCCCCN(O)C(=O)CCC(=O)NCCCCCN(O)C(=O)CCC(=O)NCCCCCN(O)C(C)=O)c(=O)c1=O)Nc1c(NCCCCCN(O)C(=O)CCC(=O)NCCCCCN(O)C(=O)CCC(=O)NCCCCCN(O)C(C)=O)c(=O)c1=O)NC(=O)[C@H](CCCCNc1c(NCCCCCN(O)C(=O)CCC(=O)NCCCCCN(O)C(=O)CCC(=O)NCCCCCN(O)C(C)=O)c(=O)c1=O)Nc1c(NCCCCCN(O)C(=O)CCC(=O)NCCCCCN(O)C(=O)CCC(=O)NCCCCCN(O)C(C)=O)c(=O)c1=O)C(=O)O)C(C)C [zirconium-89 labelled]	–	ex vivo gamma counting	Sprague-Dawley rat, male, colon	intravenous, 1 nmol, 24 h	–	tissue uptake	0.381 %ID/g and 0.36 %ID/g and 0.449 %ID/g and 0.317 %ID/g and 0.389 %ID/g
COc1cc2c(Oc3ccc4[nH]c(C)cc4c3F)ccnc2cc1OCC1(N)CC1	–	–	paediatric recurrent refractory sarcoma	10 mg	–	Thrombocytopenia incidence	50%
CN1CC[C@@H](c2c(O)cc(O)c3c(=O)cc(-c4ccc(C(F)(F)F)cc4Cl)oc23)[C@@H]1CO	–	measured: Constipation	relapsed or refractory haematological malignancies	oral, dose not given, grade ≥3	–	adverse event incidence	0%
O=C(O)CCCOc1ccc(F)cc1-c1cc(-c2ccccc2C(F)(F)F)n(-c2ccccc2)n1	–	–	male Crl:CD(SD) rats, heart	intravenous, 25 µg/kg, 14 d	–	organ weight	1.39 ± 0.09 g
COc1cc(Nc2ncc(F)c(Nc3ccc4c(n3)NC(=O)C(C)(C)O4)n2)cc(OC)c1OC	Caspase-7 (CASP7, Homo sapiens, UniProt P55210)	–	–	–	–	IC50	> 10 µM
O=C(c1ccc(F)c(F)c1Nc1ccc(I)cc1F)N1CC(O)([C@@H]2CCCCN2)C1	–	–	human patients	oral, dose not given, dose escalation, suspension	–	adverse events of special interest	50%
C[C@H]1N=C(c2ccccc2F)c2cc(Br)ccc2-n2cnc(C(=O)O[C@@H]3O[C@H](C(=O)O)[C@@H](O)[C@H](O)[C@H]3O)c21	–	–	mice, blood	oral gavage, 100 mg/kg	–	half-life	21.7 min
C[C@H]1CN(c2n[nH]c3nc(N[C@H]4CC[C@H](NS(=O)(=O)CCC(F)(F)F)CC4)ncc23)CCO1	MICOS complex subunit MIC19 (Homo sapiens, UniProt Q9NX63)	Kinobeads competition, measured: CHCHD3	–	20 µM, unit not given	relative to: vehicle	remaining binding	1.22
CC(=O)c1c(C)c2cnc(Nc3ccc(C4CCN(CCS(C)(=O)=O)CC4)cn3)nc2n(C2CCCC2)c1=O	–	–	human patients, plasma	oral, 100 mg twice daily, day 1 single dose, together with: fulvestrant	–	clearance	1900 mL/min
CCC[C@@](N)(CO)CCc1ccc(OCCCCCC(C)C)cc1	–	–	dog, male hounds, plasma	oral capsule, 5 mg/kg, geometric mean	–	Cmax	385 nM
COc1ncnn2ccc(-c3cnc4nc(C)n(Cc5nnc([C@@H](C)F)o5)c4c3)c12	–	phase 1 trial	human patients	oral, dose not given, CTCAE grade 5	–	patients with decreased WBC count	0%
C[C@]1(CO)Cc2ncn(-c3ccc(C#N)c(Cl)c3)c2C(=O)O1	–	–	human	concentration not given, European food-effect part	–	disorders, nervous system, drug related	25%
O=C(Oc1ccc(Cl)cc1)[c-]1cccc1.[Fe+2].c1cc[cH-]c1	–	cyclic voltammetry	methanol/DMEM 1:1 with TBAPF6	Pt disk electrode, Ag/AgCl reference, together with: scan rate 100 mV/s	–	oxidation potential	570 mV
CC(Nc1nc(N2CCN(CCN)CC2)nc2ccccc12)c1ccccc1 (stereo not shown)	Vero-E6	CellTiter-Glo ATP	–	72 h, retest 8-point duplicates	relative to: DMSO 0%, hyamine -100%, more negative, more toxic	maximum response	-11.5%
CO[C@H]1C[C@@H]2CC[C@@H](C)[C@@](O)(O2)C(=O)C(=O)N2CCCC[C@H]2C(=O)O[C@H]([C@H](C)C[C@@H]2CC[C@@H](OC(=O)NCCOCCOCCOCCOCCOCCOCCOCCOCCC(=O)N3CCc4cc(Cn5nc(-c6ccc7oc(N)nc7c6)c6c(N)ncnc65)ccc4C3)[C@H](OC)C2)C[C@@H](O)[C@H](C)/C=C(\C)[C@@H](O)[C@@H](OC)C(=O)[C@H](C)C[C@H](C)/C=C/C=C/C=C/1C	–	–	patients with advanced solid tumours	intravenous, 10 mg weekly, grade 3 or higher	–	AE leading to discontinuation	0%
CC[C@H](C)[C@H](NC(=O)[C@H](Cc1ccccc1)NC(=O)[C@H](CCC(=O)O)NC(=O)[C@H](CCCNC(=N)N)NC(=O)[C@H](C)NC(=O)[C@H](C)NC(=O)[C@H](CCC(N)=O)NC(=O)[C@H](CCC(=O)O)NC(=O)[C@H](CCC(=O)O)NC(=O)[C@H](CC(C)C)NC(=O)[C@H](Cc1ccc(O)cc1)NC(=O)[C@H](CO)NC(=O)[C@H](CO)NC(=O)[C@@H](NC(=O)[C@H](CC(=O)O)NC(=O)[C@H](CO)NC(=O)[C@@H](NC(=O)[C@H](Cc1ccccc1)NC(=O)[C@@H](NC(=O)CNC(=O)[C@H](CCC(=O)O)NC(=O)[C@H](C)NC(=O)CCc1c[nH]cn1)[C@@H](C)O)[C@@H](C)O)C(C)C)C(=O)N[C@@H](C)C(=O)N[C@@H](Cc1c[nH]c2ccccc12)C(=O)N[C@@H](CC(C)C)C(=O)N[C@H](C(=O)N[C@@H](CCCNC(=N)N)C(=O)NCC(=O)N[C@@H](CCCNC(=N)N)C(=O)N[C@@H](CCCCNC(=O)COCCOCCNC(=O)COCCOCCNC(=O)CC[C@H](NC(=O)CCCCCCCCCCCCCCCCC(=O)O)C(=O)O)C(=O)NCC(=O)NCC(=O)N[C@@H](CO)C(=O)N[C@@H](CCCCNc1c(NCCCCCN(O)C(=O)CCC(=O)NCCCCCN(O)C(=O)CCC(=O)NCCCCCN(O)C(C)=O)c(=O)c1=O)C(=O)O)C(C)C [zirconium-89 labelled]	–	–	rat, duodenum	sc, 3 nmol/kg, 24 h, ex vivo	–	tissue uptake	0.18 %ID/g
CC[C@H](C)[C@@H]1NC(=O)[C@@H]2CCCN2C(=O)[C@H](CC(C)C)NC(=O)[C@H](CC(C)C)NC(=O)CNC(=O)[C@@H](NC(=O)[C@@H](NC(=O)[C@H](CC(=O)O)NC(=O)CNC(=O)[C@@H](NC(=O)[C@H](C)NC(=O)CNC(=O)[C@H](CCCCN)NC(=O)[C@H](CC(C)C)NC(=O)[C@H](CC(C)C)NC(=O)[C@H](CCCCN)NC(=O)CNC(=O)[C@@H](NC(=O)[C@@H](N)CC(C)C)C(C)C)C(C)C)C(C)C)CSSC[C@@H](C(=O)O)NC1=O	–	RNA-seq, measured: Slfn2 mRNA	mouse traumatic brain injury, frontal cortex and hippocampus	dose not given	relative to: TBI plus compound vs TBI	log2 fold change	-3.23
CC(C)C[C@H](NC(=O)[C@H](CCCCN)NC(=O)OCC1c2ccccc2-c2ccccc21)C(=O)N[C@H](C(=O)N[C@@H](Cc1ccccc1)C(=O)N[C@@H](Cc1ccccc1)C(=O)N[C@@H](CCCCN)C(=O)NCC(=O)N[C@@H](Cc1ccccc1)C(=O)N[C@@H](C)C(=O)N[C@@H](Cc1c[nH]c2ccccc12)C(=O)N[C@@H](CC(N)=O)C(=O)N[C@H](C(=O)N[C@H]1CSSC[C@@H](C(=O)N[C@@H](Cc2c[nH]cn2)C(=O)N[C@@H](CCCNC(=N)N)C(=O)N[C@@H](CCCNC(=N)N)C(=O)N[C@@H](C)C(=O)N[C@@H](CC(N)=O)C(N)=O)NC(=O)[C@H](C(C)C)NC(=O)[C@H](CCCNC(=N)N)NC(=O)[C@H](C(C)C)NC(=O)CNC(=O)[C@H](CC(N)=O)NC(=O)[C@H](CCCNC(=N)N)NC(=O)[C@H](Cc2ccc(O)cc2)NC(=O)[C@H](C(C)C)NC1=O)C(C)C)C(C)C	–	circular dichroism, measured: antiparallel β-sheet	PBS	80 µM, pH 7.4	–	secondary structure content	40.5%

Repeated from above:
Structure (SMILES)	tested on	test	test system	setting	how to read	measurement	result
CC[C@H](C)[C@H](NC(=O)[C@H](Cc1ccccc1)NC(=O)[C@H](CCC(=O)O)NC(=O)[C@H](CCCNC(=N)N)NC(=O)[C@H](C)NC(=O)[C@H](C)NC(=O)[C@H](CCC(N)=O)NC(=O)[C@H](CCC(=O)O)NC(=O)[C@H](CCC(=O)O)NC(=O)[C@H](CC(C)C)NC(=O)[C@H](Cc1ccc(O)cc1)NC(=O)[C@H](CO)NC(=O)[C@H](CO)NC(=O)[C@@H](NC(=O)[C@H](CC(=O)O)NC(=O)[C@H](CO)NC(=O)[C@@H](NC(=O)[C@H](Cc1ccccc1)NC(=O)[C@@H](NC(=O)CNC(=O)[C@H](CCC(=O)O)NC(=O)[C@H](C)NC(=O)CCc1cnc[nH]1)[C@@H](C)O)[C@@H](C)O)C(C)C)C(=O)N[C@@H](C)C(=O)N[C@@H](Cc1c[nH]c2ccccc12)C(=O)N[C@@H](CC(C)C)C(=O)N[C@H](C(=O)N[C@@H](CCCNC(=N)N)C(=O)NCC(=O)N[C@@H](CCCNC(=N)N)C(=O)N[C@@H](CCCCNC(=O)COCCOCCNC(=O)COCCOCCNC(=O)CC[C@H](NC(=O)CCCCCCCCCCCCCCCCC(=O)O)C(=O)O)C(=O)NCC(=O)NCC(=O)N[C@@H](CO)C(=O)N[C@@H](CCCCNC(=O)[C@H](CCCCNC(=O)[C@H](CCCCNc1c(NCCCCCN(O)C(=O)CCC(=O)NCCCCCN(O)C(=O)CCC(=O)NCCCCCN(O)C(C)=O)c(=O)c1=O)Nc1c(NCCCCCN(O)C(=O)CCC(=O)NCCCCCN(O)C(=O)CCC(=O)NCCCCCN(O)C(C)=O)c(=O)c1=O)NC(=O)[C@H](CCCCNc1c(NCCCCCN(O)C(=O)CCC(=O)NCCCCCN(O)C(=O)CCC(=O)NCCCCCN(O)C(C)=O)c(=O)c1=O)Nc1c(NCCCCCN(O)C(=O)CCC(=O)NCCCCCN(O)C(=O)CCC(=O)NCCCCCN(O)C(C)=O)c(=O)c1=O)C(=O)O)C(C)C [zirconium-89 labelled]	–	ex vivo gamma counting	Sprague-Dawley rat, male, colon	intravenous, 1 nmol, 24 h	–	tissue uptake	0.381 %ID/g and 0.36 %ID/g and 0.449 %ID/g and 0.317 %ID/g and 0.389 %ID/g
O=C(c1ccc(F)c(F)c1Nc1ccc(I)cc1F)N1CC(O)([C@@H]2CCCCN2)C1	–	–	human patients	oral, dose not given, dose escalation, suspension	–	adverse events of special interest	50%
